Results of several laboratories.
Every numbered part comes from another study and shows a few of its results, in no order. Positions count from the first letter of the parent shown.

Series 1
Target: CCNA1, cyclin fold, Cln2 fusion (human)
Method: yeast growth competition, sequencing
Matrix: yeast
Setting: weak parent motif
Relative to: not given
Reading: higher = stronger binding
Parent: SLBP docking peptide (human); ARYKRKLLINDFG; partner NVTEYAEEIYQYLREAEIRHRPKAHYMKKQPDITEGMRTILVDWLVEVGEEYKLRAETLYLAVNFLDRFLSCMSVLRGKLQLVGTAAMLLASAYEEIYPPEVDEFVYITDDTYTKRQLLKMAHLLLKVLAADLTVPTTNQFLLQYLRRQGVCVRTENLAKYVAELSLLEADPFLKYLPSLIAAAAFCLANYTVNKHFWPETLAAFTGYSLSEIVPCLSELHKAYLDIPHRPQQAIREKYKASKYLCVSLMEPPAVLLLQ
| Change | normalised enrichment score |
| --- | --- |
| K4I | -0.165 |
| A1C | 0.0969 |
| N10M | 0.28 |
| R2V | 0.401 |
| K4L | 0.353 |
| G13M | 0.544 |
| N10K | 0.335 |
| N10V | 0.184 |
| Y3I | 0.579 |
| K4A | 0.185 |
| R2H | 0.399 |
| L7W | -0.107 |
| N10L | 0.713 |
| R2F | 0.307 |
| Y3M | 0.649 |
| D11N | 0.026 |
| L8Y | 0.227 |
| L8A | 0.272 |
| L7T | 0.0897 |
| D11V | 0.208 |
| K4Q | 0.468 |

Series 2
Target: RNA binding protein fox-1 homolog 2, RRM domain, GST-SBP tag (RBFOX2, Homo sapiens, UniProt O43251-10, residues 100-194)
Method: RNA Bind-n-Seq
Molecule type: RNA
Matrix: in vitro
Concentration: 365 nM
Setting: natural RNA segment, single round, ends assumed
Relative to: no-protein control
Reading: higher = stronger binding
Residues (chain): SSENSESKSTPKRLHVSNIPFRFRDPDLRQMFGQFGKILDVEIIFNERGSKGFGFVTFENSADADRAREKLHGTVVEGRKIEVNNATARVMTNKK
| Sequence | RBNS enrichment (R) |
| --- | --- |
| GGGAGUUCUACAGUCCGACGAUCAAAAUAAUAGUUUUAGUGAGGAUGGUGCUGAGUAAACAUAAAAACUGAUUUGCUCUCAGCUGAUGUGUCCUGUACACAGUGGGAAGAUUUUAGUUCACACUUAGUCUAACUGGAAUUCUCGGGUGCCAA | 0.416 |
| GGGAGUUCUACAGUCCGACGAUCCGUCUUCCGUGGGACUGUCCCCAAGGCUGAGGCUCCUGCCAAGUCCUAGGGGCCUCUGUACCUGCCCUGCUGGAAGCCCUGACUUCCCCGGGGCCCCAGGCUGUGUUAGGUGGAAUUCUCGGGUGCCAA | 0.438 |
| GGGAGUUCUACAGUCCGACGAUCAGUUUGGAAAAAUCAUGGUCAACAUUCCCAUUUUCAUAGAUCACAAUGUAAAUCACUAUAAUUACAAAUUGGUGUUAAAUCCUUUGGGUUAUCCACUGCCUUAAAAUUAUUGGAAUUCUCGGGUGCCAA | 0.571 |
| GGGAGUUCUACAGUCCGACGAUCGUGAGUGUGUAGCUGGACACCUUAGAGGACCCUAUGAAAUUGGAUAUGGAGACUGAUUUGGUGGGAAAAAACCUGUUACUUUCCAGUCACCCCAGGUUCUGACUUUACCUUGGAAUUCUCGGGUGCCAA | 0.342 |
| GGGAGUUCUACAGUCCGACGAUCCUCGUUGUCUUUUCGCUUGAAAUUUUUGAUCUUGUCCUGAAGACUAGCUGCUGCUAAAACAAUGCUAGCCUAAAGAUACAGGAGUCUCUGACAAAAUGACUUUCAUGUUAUGGAAUUCUCGGGUGCCAA | 0.429 |
| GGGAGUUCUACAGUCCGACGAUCAGGGACGGAUAAGGGCAGAUGUCAGCAAUACUAAGGGCUUCCUCCUGGGAGGGAAUGAGGUUCCACUCAUUGUCUCGUGACUUCCAUCCCUGCUGAACGGGGCUGCAAGGUGGAAUUCUCGGGUGCCAA | 0.817 |
| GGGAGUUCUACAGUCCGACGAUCAUGUCCUACAGUUCUGCUAUCACCUGACUAGAAUAGCCCUCUAGGCAACAGUGCUCAAAUGUAUGAGUUUGGAGAAGUUAACAAUCAGAAGAACAAAAACUGUAGUGUUUUGGAAUUCUCGGGUGCCAA | 0.364 |
| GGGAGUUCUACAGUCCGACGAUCACAUAAUAAUUGAAAGUGGCAAUUCCUCUGGAGCUGUCUGCCAAAAGAAACUGCCUACAGACAUCAUCACAGCAGCCUCCUCACUUGGGUACUACCGUGUGGAAGCUGUGUGGAAUUCUCGGGUGCCAA | 0.279 |
| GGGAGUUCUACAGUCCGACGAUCCUCAAUGACACCAUUUUUAGUUUUAUUUCCUGAUAGCAAAAGGAAAAAAAACACCCAUCCCUCAAAAAGGCCAAGGUCCCGUCCCCCUGUUGUCGGUGAUUUGUUUGUCUUGGAAUUCUCGGGUGCCAA | 0.484 |
| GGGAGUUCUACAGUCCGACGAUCUAUGGAGAUUACCAGGCAGAUGAUACCGAAAUGCUUAAAGGGGCUGUGGCUGAGGCUGUAGCAUCUCUGCUGGAGGUGAGACACUCUGGGAACUGAUUUGACCUCGAAUGUGGAAUUCUCGGGUGCCAA | 0.445 |
| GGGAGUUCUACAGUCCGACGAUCCAGGCCUCUGGAAUCAGAAUCUUCAGGGUGGGGCCCAGCAGUCUGUGUUUUAACAGGUUCUCCCGGUGAUGCUGGUGCAUGCUCAAGUUUGAGAACCGCUGCUCUCAUAGUGGAAUUCUCGGGUGCCAA | 7.73 |
| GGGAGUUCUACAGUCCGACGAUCAAGAAUGCUAUAGAUGACAACAGUAUUAAAUGUUACUCCUGAUUCUGCAGAACAGCUUUUGAAGAUACUGGGGGGUAUCUUCAAGCCUCAGAGCAGCUUGUUUCAGAUAGUGGAAUUCUCGGGUGCCAA | 1.2 |

Series 3
Target: Prothrombin, mature alpha-thrombin (F2, Homo sapiens, UniProt P00734)
Method: aptamer microarray, sandwich
Molecule type: DNA with 2'F-ANA
Matrix: in vitro
Concentration: 200 nM
Setting: whole 15-mer aptamer, many near background
Added: Cy3 exosite-II aptamer, 400 nM
Reading: higher = stronger binding
Sequence: GGTTGGTGTGGTTGG
| Modification | mean fluorescence intensity |
| --- | --- |
| 2'F-ANA at 1 3 5 6 7 8 9 10 11 | 47.6 a.u. |
| 2'F-ANA at 5 9 10 11 15 | 51.3 a.u. |
| 2'F-ANA at 1 2 5 6 7 8 9 10 11 12 13 14 | 64.4 a.u. |
| 2'F-ANA at 1 2 3 4 10 11 14 15 | 46.6 a.u. |
| 2'F-ANA at 1 2 3 6 8 12 14 | 90.9 a.u. |
| 2'F-ANA at 1 3 4 6 8 9 15 | 216 a.u. |
| 2'F-ANA at 1 4 7 8 9 | 132 a.u. |
| 2'F-ANA at 1 3 5 8 9 11 12 13 15 | 80.6 a.u. |
| 2'F-ANA at 1 6 13 | 128 a.u. |
| 2'F-ANA at 2 5 10 12 14 | 46.7 a.u. |
| 2'F-ANA at 2 3 4 5 6 7 9 11 15 | 63.5 a.u. |
| 2'F-ANA at 1 6 9 11 12 15 | 203 a.u. |
| 2'F-ANA at 1 2 5 7 9 12 14 15 | 48.5 a.u. |
| 2'F-ANA at 2 3 5 7 10 13 14 15 | 63.9 a.u. |
| 2'F-ANA at 2 3 5 7 10 12 13 | 56.2 a.u. |
| 2'F-ANA at 2 4 6 9 10 11 12 13 14 | 62.3 a.u. |
| 2'F-ANA at 4 5 6 7 8 12 13 | 107 a.u. |
| 2'F-ANA at 1 4 8 9 12 | 348 a.u. |
| 2'F-ANA at 1 5 6 7 9 10 13 14 | 44.7 a.u. |
| 2'F-ANA at 1 5 6 7 8 9 10 11 13 14 15 | 48.6 a.u. |
| 2'F-ANA at 1 3 6 8 13 15 | 240 a.u. |
| 2'F-ANA at 2 4 9 11 14 15 | 82.5 a.u. |
| 2'F-ANA at 1 2 5 8 9 13 14 15 | 48.7 a.u. |

Series 4
Target: CREB5, bZIP domain (human)
Method: DHFR protein complementation
Matrix: yeast
Setting: single substitutions, most at no-binding floor
Relative to: wild-type JUN-FOS pair
Reading: higher = stronger binding
Parent: JUN, bZIP domain (human); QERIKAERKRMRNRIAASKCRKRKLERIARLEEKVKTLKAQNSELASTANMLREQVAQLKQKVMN; partner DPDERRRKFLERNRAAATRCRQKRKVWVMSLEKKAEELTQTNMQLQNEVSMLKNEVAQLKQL
| Change | binding fitness |
| --- | --- |
| A40L | -0.359 natural log |
| V56E | -1.31 natural log |
| I28K | -0.377 natural log |
| E54W | -0.876 natural log |
| K39F | -0.694 natural log |
| K34E | -0.586 natural log |
| L31H | -1.4 natural log |
| V35L | -0.57 natural log |
| N42F | -1.07 natural log |
| R53Q | -0.928 natural log |
| L38C | -1.38 natural log |
| V35E | -1.36 natural log |
| L45K | -1.3 natural log |
| E33L | -0.391 natural log |
| S47A | -0.159 natural log |
| L52Y | -0.818 natural log |
| A40V | -0.342 natural log |
| K36N | -0.274 natural log |
| N42C | -0.925 natural log |
| I28L | -0.297 natural log |
| K36L | -0.399 natural log |

Series 5
Target: ABI1, truncated, D143A, DHFR fusion (Arabidopsis thaliana)
Method: DHFR PCA, deep sequencing
Matrix: yeast
Setting: methotrexate growth selection, single substitutions
Added: (+)-ABA 200 µM
Relative to: wild-type fitted maximum
Reading: higher = stronger binding
Parent: PYL1, truncated, DHFR fusion (Arabidopsis thaliana); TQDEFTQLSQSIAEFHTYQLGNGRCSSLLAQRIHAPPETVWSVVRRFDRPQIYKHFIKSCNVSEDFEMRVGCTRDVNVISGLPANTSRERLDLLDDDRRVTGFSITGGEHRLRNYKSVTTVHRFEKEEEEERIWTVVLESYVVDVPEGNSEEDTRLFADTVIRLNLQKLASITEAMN; partner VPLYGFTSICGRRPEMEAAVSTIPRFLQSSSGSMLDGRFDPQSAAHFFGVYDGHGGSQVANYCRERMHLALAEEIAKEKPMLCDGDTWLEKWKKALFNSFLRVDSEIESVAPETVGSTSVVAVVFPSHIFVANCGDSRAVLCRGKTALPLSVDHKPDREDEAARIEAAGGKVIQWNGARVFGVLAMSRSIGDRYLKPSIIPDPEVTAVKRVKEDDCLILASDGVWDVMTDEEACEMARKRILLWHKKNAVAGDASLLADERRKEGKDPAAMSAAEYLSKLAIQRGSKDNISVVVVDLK
| Change | relative binding score |
| --- | --- |
| T101F | 109% |
| Y53T | 42.8% |
| G107P | 26.2% |
| E64V | 99.8% |
| T106I | 112% |
| L94T | 44.9% |
| D48V | 17.8% |
| E129S | 110% |
| V62D | 16% |
| A84R | 9.3% |
| L164C | 106% |
| Q10I | 87.9% |
| L29G | 3.76% |
| R74H | 4.31% |
| R123M | 103% |
| D65A | 100% |
| L138V | 84.3% |

Series 6
Target: Histone acetyltransferase KAT6A, winged helix 2, GST fusion (KAT6A, Homo sapiens, UniProt Q92794, residues 85-181)
Method: protein binding microarray
Molecule type: double-stranded DNA, one strand shown
Matrix: in vitro
Concentration: not given
Setting: 8-mer, flanks averaged, mean of 2 arrays, mostly near background
Relative to: not given
Reading: higher = stronger binding
Target sequence (chain): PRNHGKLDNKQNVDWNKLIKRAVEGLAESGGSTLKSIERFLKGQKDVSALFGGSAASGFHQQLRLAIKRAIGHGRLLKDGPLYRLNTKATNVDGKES
| Sequence | E-score |
| --- | --- |
| CGAGTGTA | -0.0412 |
| AATCATAT | -0.00266 |
| CAGCCTGG | 0.022 |
| GCCTGTCC | -0.0279 |
| GAGGAGTA | -0.111 |
| TTATCAAA | 0.213 |
| ACTGGTGA | -0.138 |
| ACGCGAAT | 0.0478 |
| AAGGCCCA | -0.0807 |
| CGCCTGAA | 0.2 |
| AACTGGGA | -0.00064 |
| GGACCGCA | 0.226 |
| ACCTGTTC | -0.0704 |
| ATAATTCA | 0.0754 |
| GGCGAACC | 0.22 |
| ATATATCG | 0.0627 |
| CTGTGCGA | 0.0678 |
| CGGCAAAA | -0.0417 |
| GTCGCGAC | 0.284 |
| AGCCTCCG | 0.0709 |
| ACGGGTCA | -0.035 |
| CTTCATAA | 0.071 |

Excerpt of the above (series 1):
| Change | normalised enrichment score |
| --- | --- |
| R2V | 0.401 |
| K4L | 0.353 |
| G13M | 0.544 |
| N10K | 0.335 |
| N10V | 0.184 |
| Y3I | 0.579 |
| K4A | 0.185 |
| R2H | 0.399 |
| L7W | -0.107 |
| N10L | 0.713 |
| R2F | 0.307 |
| Y3M | 0.649 |
| D11N | 0.026 |
| L8Y | 0.227 |
| L8A | 0.272 |
| L7T | 0.0897 |
| D11V | 0.208 |
| K4Q | 0.468 |
